{"data": "Results gathered from unrelated publications", "target": "Serine/threonine-protein kinase SIK3 (SIK3, Homo sapiens, UniProt Q9Y2K2)", "note": "Lines come from different studies, so protocols differ.", "UniProt Q9Y2K2, sequence (whole entry, looked up)": "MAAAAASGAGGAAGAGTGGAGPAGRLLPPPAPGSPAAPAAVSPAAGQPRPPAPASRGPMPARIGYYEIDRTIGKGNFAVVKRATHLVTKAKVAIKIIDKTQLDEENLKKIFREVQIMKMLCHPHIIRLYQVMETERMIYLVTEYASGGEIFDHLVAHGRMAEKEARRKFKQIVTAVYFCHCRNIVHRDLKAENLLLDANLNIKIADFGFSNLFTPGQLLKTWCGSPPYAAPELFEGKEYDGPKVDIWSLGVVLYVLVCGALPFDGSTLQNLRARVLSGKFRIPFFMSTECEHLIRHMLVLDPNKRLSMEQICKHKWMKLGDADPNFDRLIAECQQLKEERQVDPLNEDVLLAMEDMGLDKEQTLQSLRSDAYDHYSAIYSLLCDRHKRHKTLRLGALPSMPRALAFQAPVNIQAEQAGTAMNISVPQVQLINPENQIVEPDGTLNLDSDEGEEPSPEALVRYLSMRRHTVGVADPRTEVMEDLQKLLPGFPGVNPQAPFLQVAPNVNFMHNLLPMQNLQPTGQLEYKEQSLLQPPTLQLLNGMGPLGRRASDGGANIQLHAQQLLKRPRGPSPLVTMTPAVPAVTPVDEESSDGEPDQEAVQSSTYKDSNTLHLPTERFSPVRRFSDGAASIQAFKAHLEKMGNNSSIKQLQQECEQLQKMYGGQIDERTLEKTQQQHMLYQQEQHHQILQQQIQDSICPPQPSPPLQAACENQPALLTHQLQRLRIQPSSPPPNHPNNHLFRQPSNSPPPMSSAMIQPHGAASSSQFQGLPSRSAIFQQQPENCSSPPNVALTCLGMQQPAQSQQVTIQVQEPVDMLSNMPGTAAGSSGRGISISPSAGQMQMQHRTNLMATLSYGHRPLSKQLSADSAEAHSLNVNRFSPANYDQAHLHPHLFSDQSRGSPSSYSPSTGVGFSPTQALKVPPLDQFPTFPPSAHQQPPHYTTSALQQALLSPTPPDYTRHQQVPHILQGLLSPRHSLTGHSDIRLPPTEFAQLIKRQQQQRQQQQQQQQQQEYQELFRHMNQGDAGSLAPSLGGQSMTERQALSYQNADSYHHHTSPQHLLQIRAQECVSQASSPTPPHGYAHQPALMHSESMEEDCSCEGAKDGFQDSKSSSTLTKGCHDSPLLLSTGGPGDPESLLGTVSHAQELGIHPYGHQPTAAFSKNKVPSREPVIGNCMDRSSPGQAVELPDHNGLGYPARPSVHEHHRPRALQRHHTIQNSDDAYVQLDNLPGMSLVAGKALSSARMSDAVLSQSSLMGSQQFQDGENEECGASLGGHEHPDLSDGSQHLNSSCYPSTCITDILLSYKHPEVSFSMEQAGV"}
{"SMILES": "C=CC(=O)N1CCC(C(=O)NCC(=O)N2CCN(c3nc(-c4cnc(N)nc4C(F)F)nc(N4CCOCC4)n3)CC2)CC1", "assay": "KINOMEscan", "setting": "1 µM", "endpoint": "remaining binding", "value": "76%"}
{"SMILES": "COc1cc(N2CCN(C)CC2)ccc1Nc1nc(N)n(C(=S)NCc2c(Cl)cccc2Cl)n1", "assay": "enzyme activity", "setting": "10 µM", "how to read": "reference: control", "endpoint": "remaining activity", "value": "13%"}
{"SMILES": "C1=C/COCc2cc(ccc2OCCN2CCCC2)Nc2nccc(n2)-c2cccc(c2)COC/1", "assay": "kinase binding panel", "setting": "concentration not given", "how to read": "reference: control", "endpoint": "remaining binding", "value": "83%"}
{"SMILES": "O=C(NC1CCC1)c1ccc2nc(-c3cccc(NS(=O)(=O)NCCN4CCCCC4)c3)cn2c1", "assay": "enzyme activity", "setting": "10 µM", "endpoint": "remaining activity", "value": "100%"}
{"SMILES": "COc1cc(-c2cncc3c2CN(C)Cc2cc(N4CCNCC4)ccc2-3)cc(OC)c1OC", "assay": "kinase activity", "setting": "1 µM, human enzyme, with: ATP 10 µM", "how to read": "reference: DMSO control", "endpoint": "remaining activity", "value": "102%"}
{"SMILES": "CNc1ncc2c(/C=C/C(=O)N3CCC(OC)CC3)nn(Cc3cccc(C(F)(F)F)c3)c2n1", "assay": "kinase activity, inhibitor", "setting": "1 µM", "how to read": "reference: untreated control", "endpoint": "remaining activity", "value": "99%"}
{"SMILES": "C=CC(=O)N1CCC(COCC(=O)N2CCN(c3nc(-c4cnc(N)nc4C(F)F)nc(N4CCOC[C@@H]4C)n3)CC2)CC1", "assay": "KINOMEscan", "setting": "1 µM", "how to read": "reference: DMSO control", "endpoint": "remaining binding", "value": "98%"}
{"SMILES": "C[C@@H](c1ccc(-n2cnc3c(N)ncnc32)cc1)N1CCc2nn(C)c(Cc3ccccc3)c2C1=O", "assay": "KINOMEscan", "setting": "0.1 µM", "how to read": "reference: DMSO control", "endpoint": "remaining binding", "value": "68%"}
{"note": "Repeated from above:"}
{"SMILES": "COc1cc(N2CCN(C)CC2)ccc1Nc1nc(N)n(C(=S)NCc2c(Cl)cccc2Cl)n1", "assay": "enzyme activity", "setting": "10 µM", "how to read": "reference: control", "endpoint": "remaining activity", "value": "13%"}
